# Experimental data of several laboratories.
# “And” joins repeats or separate records; there may be more than shown. ± marks the error that the study gave.
# T1: riboswitch RNA yjdF aptamer U23A, P2a insertion (Bacillus subtilis); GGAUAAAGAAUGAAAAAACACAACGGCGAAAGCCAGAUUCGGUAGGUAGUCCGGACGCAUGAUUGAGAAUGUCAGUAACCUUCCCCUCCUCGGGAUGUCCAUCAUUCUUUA
# UniProt O43237, sequence (whole entry, looked up): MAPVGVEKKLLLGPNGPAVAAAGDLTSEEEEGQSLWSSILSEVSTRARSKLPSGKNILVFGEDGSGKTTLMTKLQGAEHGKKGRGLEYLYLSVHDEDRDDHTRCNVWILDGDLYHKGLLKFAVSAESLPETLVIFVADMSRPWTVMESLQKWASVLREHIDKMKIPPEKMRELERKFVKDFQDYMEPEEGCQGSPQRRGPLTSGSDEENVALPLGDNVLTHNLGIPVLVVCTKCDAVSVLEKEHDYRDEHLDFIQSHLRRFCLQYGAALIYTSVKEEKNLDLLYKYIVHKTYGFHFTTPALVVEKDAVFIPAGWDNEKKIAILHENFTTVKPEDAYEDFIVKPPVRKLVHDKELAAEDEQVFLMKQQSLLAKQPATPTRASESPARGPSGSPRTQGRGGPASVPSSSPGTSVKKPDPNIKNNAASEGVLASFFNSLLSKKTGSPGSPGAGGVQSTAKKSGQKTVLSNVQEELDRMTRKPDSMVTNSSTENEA
# UniProt Q64663, sequence (whole entry, unmodified, looked up): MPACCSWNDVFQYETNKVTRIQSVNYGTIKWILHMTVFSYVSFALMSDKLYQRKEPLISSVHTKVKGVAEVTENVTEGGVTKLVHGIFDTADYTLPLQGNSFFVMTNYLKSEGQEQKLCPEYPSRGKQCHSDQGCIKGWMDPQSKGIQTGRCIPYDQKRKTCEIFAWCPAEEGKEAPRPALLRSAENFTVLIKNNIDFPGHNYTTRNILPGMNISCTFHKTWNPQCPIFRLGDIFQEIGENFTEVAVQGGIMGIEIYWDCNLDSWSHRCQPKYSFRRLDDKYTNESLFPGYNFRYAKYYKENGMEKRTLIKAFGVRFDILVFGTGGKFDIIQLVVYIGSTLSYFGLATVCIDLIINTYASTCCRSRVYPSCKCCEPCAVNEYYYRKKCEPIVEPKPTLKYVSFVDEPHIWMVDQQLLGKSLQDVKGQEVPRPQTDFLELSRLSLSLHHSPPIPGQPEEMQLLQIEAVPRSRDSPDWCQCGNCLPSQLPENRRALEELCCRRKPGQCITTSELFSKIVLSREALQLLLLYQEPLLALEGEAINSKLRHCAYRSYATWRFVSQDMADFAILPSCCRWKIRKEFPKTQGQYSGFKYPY
# UniProt P43003, sequence (whole entry, looked up): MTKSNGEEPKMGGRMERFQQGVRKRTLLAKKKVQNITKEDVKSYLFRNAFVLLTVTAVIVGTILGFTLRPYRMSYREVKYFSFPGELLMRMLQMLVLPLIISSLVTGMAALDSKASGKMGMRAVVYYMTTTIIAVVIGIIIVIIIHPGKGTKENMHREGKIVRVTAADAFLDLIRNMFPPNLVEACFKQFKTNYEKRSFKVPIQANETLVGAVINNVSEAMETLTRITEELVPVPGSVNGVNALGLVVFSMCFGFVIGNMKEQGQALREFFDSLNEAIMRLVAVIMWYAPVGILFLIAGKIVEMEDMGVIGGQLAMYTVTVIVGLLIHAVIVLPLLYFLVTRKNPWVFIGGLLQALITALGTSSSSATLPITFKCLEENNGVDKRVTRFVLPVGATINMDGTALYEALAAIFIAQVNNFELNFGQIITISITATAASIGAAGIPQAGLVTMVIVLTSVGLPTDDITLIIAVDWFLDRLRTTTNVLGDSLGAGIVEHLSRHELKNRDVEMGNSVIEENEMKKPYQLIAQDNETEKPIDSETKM
# UniProt Q15831, sequence (whole entry, looked up): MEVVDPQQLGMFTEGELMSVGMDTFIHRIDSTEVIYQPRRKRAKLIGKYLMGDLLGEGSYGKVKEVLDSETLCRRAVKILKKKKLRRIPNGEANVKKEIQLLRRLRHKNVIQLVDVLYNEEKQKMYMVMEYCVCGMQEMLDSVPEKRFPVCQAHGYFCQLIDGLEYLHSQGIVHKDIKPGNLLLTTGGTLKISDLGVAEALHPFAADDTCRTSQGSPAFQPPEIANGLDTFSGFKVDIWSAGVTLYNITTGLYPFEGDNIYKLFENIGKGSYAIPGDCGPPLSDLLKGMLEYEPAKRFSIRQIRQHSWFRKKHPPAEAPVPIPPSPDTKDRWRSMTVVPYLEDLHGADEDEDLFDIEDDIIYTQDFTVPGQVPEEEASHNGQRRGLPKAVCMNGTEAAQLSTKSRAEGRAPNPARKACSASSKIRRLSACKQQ
# UniProt Q14012, sequence (whole entry, looked up): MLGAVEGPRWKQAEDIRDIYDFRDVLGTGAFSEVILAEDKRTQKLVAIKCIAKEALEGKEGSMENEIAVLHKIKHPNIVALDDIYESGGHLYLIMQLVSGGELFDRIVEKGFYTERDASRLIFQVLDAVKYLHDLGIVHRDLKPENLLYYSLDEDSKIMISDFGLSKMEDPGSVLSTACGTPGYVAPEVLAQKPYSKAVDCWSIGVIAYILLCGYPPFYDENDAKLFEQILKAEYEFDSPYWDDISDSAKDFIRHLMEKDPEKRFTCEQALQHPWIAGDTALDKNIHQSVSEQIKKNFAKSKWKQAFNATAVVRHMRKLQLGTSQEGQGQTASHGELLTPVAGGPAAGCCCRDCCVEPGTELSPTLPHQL
SMILES,target,assay,system,conditions,how to read,quantity,result
COc1cc(-c2cncc3c2CN(C)Cc2cc(N4CCNCC4)ccc2-3)cc(OC)c1OC,"Serine/threonine-protein kinase STK11 (STK11, Homo sapiens, UniProt Q15831)",kinase activity,,"1 µM, human enzyme, added: ATP 10 µM",baseline: DMSO control,remaining activity,101%
CC[C@@H]1[C@H](F)C(=O)N[C@@H]1COc1nccc2cc(C(N)=O)c(OC)cc12,"Calcium/calmodulin-dependent protein kinase type 1 (CAMK1, Homo sapiens, UniProt Q14012)","ATP probe binding, KiNativ profiling, item: Lys1 probe site",THP-1 cell lysate,0.2 mM,,inhibition,1.9%
O=C(COP(=O)(O)O)[C@@H](O)[C@H](O)[C@H](O)COP(=O)(O)O,"Cytoplasmic dynein 1 light intermediate chain 2 (Homo sapiens, UniProt O43237)","thermal proteome profiling, item: DYNC1LI2",HepG2 cell lysate,"concentration not given, 57 over 37 °C",baseline: compound over control,thermal stability ratio,0.68 and 0.457 and 0.375
Nc1ncnc2c1ncn2[C@@H]1O[C@H](COP(=O)(O)OP(=O)(O)OP(=O)(O)O)[C@@H](O)[C@H]1O,"P2X purinoceptor 7 (P2rx7, Rattus norvegicus, UniProt Q64663, Q143A/R125A)","ion current, agonist, two-electrode voltage clamp",Xenopus laevis oocytes,500 µM,baseline: highest concentration response,normalized current,0.939 and 0.967 and 1
Cc1cc2nc3[nH]c(=O)[nH]c(=O)c3nc2cc1C,"T1, riboswitch RNA yjdF aptamer U23A, P2a insertion (Bacillus subtilis)",fluorescence titration,,added: 380 nM lumichrome,,Kd,2 µM
O=C(O)c1ccc(Nc2ncc3c(n2)-c2ccc(Cl)cc2C(c2c(F)cccc2F)=NC3)cc1,human JNK1α1(h),kinase activity,,1 µM,,remaining activity,122%
CC(=O)OCC1=C(C(=O)O)N2C(=O)[C@@H](NC(=O)Cc3cccs3)[C@H]2SC1,beta-lactamase RAD-1 (Riemerella anatipestifer),"substrate, continuous spectrophotometric hydrolysis",,30 °C,,Km,49 ± 2.8 µM
Cc1ccccc1Nc1c(-c2ccco2)nc2c(C(F)F)cccn12,"Excitatory amino acid transporter 1 (SLC1A3, Homo sapiens, UniProt P43003)","glutamate uptake, impedance",HEK293,,baseline: SLC1A1 over SLC1A3,selectivity ratio,> 100 fold
CC[C@H](C)[C@H](NC(=O)[C@H](Cc1ccccc1)NC(=O)[C@H](CCC(=O)O)NC(=O)[C@H](CCCNC(=N)N)NC(=O)[C@H](C)NC(=O)[C@H](C)NC(=O)[C@H](CCC(N)=O)NC(=O)[C@H](CCCCNc1c(NCCCCCN(O)C(=O)CCC(=O)NCCCCCN(O)C(=O)CCC(=O)NCCCCCN(O)C(C)=O)c(=O)c1=O)NC(=O)[C@H](CCC(=O)O)NC(=O)[C@H](CC(C)C)NC(=O)[C@H](Cc1ccc(O)cc1)NC(=O)[C@H](CO)NC(=O)[C@H](CO)NC(=O)[C@@H](NC(=O)[C@H](CC(=O)O)NC(=O)[C@H](CO)NC(=O)[C@@H](NC(=O)[C@H](Cc1ccccc1)NC(=O)[C@@H](NC(=O)CNC(=O)[C@H](CCC(=O)O)NC(=O)[C@H](C)NC(=O)CCc1cnc[nH]1)[C@@H](C)O)[C@@H](C)O)C(C)C)C(=O)N[C@@H](C)C(=O)N[C@@H](Cc1c[nH]c2ccccc12)C(=O)N[C@@H](CC(C)C)C(=O)N[C@H](C(=O)N[C@@H](CCCNC(=N)N)C(=O)NCC(=O)N[C@@H](CCCNC(=N)N)C(=O)N[C@@H](CCCCNC(=O)COCCOCCNC(=O)COCCOCCNC(=O)CC[C@H](NC(=O)CCCCCCCCCCCCCCCCC(=O)O)C(=O)O)C(=O)NCC(=O)NCC(=O)N[C@@H](CO)C(=O)N[C@@H](CCCCNc1c(NCCCCCN(O)C(=O)CCC(=O)NCCCCCN(O)C(=O)CCC(=O)NCCCCCN(O)C(C)=O)c(=O)c1=O)C(=O)O)C(C)C,"Glucagon-like peptide 1 receptor (GLP1R, Homo sapiens, UniProt P43220)","agonist, CRE luciferase reporter",BHK cells,"Zr-loaded DFO conjugate, added: 1% HSA",baseline: parent peptide,fold potency loss,0.8
Nc1c(N=Nc2ccc(S(=O)(=O)CCOS(=O)(=O)[O-])cc2)c(S(=O)(=O)[O-])cc2cc(S(=O)(=O)[O-])c(N=Nc3ccc(S(=O)(=O)CCOS(=O)(=O)[O-])cc3)c(O)c12.[Na+].[Na+].[Na+].[Na+],alternative ancestral dye-decolorizing peroxidase,"peroxidase activity, substrate, steady-state kinetics",,"25 °C, pH 3 ABTS, 4 others",,kcat,0.2 s⁻¹

# Excerpt of the above:
SMILES,target,assay,system,conditions,how to read,quantity,result
Cc1cc2nc3[nH]c(=O)[nH]c(=O)c3nc2cc1C,"T1, riboswitch RNA yjdF aptamer U23A, P2a insertion (Bacillus subtilis)",fluorescence titration,,added: 380 nM lumichrome,,Kd,2 µM
O=C(O)c1ccc(Nc2ncc3c(n2)-c2ccc(Cl)cc2C(c2c(F)cccc2F)=NC3)cc1,human JNK1α1(h),kinase activity,,1 µM,,remaining activity,122%
